Assay results of several laboratories.
A part holds a random share of what one study measured.

Set 1 — method: protein binding microarray; molecule type: double-stranded DNA, one strand shown; matrix: in vitro; tested at: not given; relative to: not given; reading: higher = stronger binding
Target: Histone acetyltransferase KAT6A, both winged helices, GST fusion (KAT6A, Homo sapiens, UniProt Q92794, residues 1-181)
Setting: 8-mer, flanks averaged, mean of 2 arrays, mostly near background
Construct (chain): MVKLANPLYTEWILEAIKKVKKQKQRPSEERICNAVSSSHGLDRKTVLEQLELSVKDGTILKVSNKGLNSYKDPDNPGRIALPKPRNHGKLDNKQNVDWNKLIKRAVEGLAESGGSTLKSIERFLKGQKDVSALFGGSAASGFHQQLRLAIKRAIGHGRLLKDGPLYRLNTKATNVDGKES
For `ATGTACCC`, the E-score was -0.0431.
With `AATCGTTC` the E-score was 0.016.
For `CTGGCCAG`, the E-score was -0.163.
The E-score of `ATCGACCA` is reported as -0.144.

Set 2 — method: RNAcompete; molecule type: RNA; matrix: in vitro; tested at: 20 nM; setting: 7-mer, probes averaged, single round; relative to: mean of 7-mers; reading: higher = stronger binding
Target: PABPC1L2, full length, GST fusion (mouse, UniProt A0ABA7IW68)
Target sequence (chain): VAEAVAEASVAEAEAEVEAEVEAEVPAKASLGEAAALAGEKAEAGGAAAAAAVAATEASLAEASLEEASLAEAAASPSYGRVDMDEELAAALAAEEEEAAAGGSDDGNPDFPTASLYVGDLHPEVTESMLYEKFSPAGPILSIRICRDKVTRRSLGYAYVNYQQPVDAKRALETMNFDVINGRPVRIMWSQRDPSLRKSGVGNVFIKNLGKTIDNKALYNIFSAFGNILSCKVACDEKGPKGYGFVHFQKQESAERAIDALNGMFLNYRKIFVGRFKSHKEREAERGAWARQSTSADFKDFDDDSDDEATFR
For `CAAUAAU`, the 7-mer Z-score was 0.0243.
For `GCUGGAU`, the 7-mer Z-score was -0.0156.
With `CCCGUGC` the 7-mer Z-score was -0.335.
`UGUCGCG` has a 7-mer Z-score of -0.371.

Set 3 — method: protein-binding microarray; molecule type: double-stranded DNA, one strand shown; matrix: in vitro; tested at: 940 nM top; setting: 60-bp whole probe; together with: salmon DNA 0.4 mg/ml; relative to: random background probes; reading: higher = stronger binding
Target: Interferon regulatory factor 5, full length, phosphomimetic (IRF5, Homo sapiens, UniProt Q13568-2, residues 1-514, S451D/S453D/S456D/S462D)
For `GCCTAGCACGAAGGTCTCGGTATCGGGACGTGCTAGGTCTTGATTCGCTTGACGCTGCTG`, “fitted relative affinity” read 3.96 z-score.
Under “fitted relative affinity”, `GCCTAGCACGACGATTTCAGTATCGAAACGTGCTAGGTCTTGATTCGCTTGACGCTGCTG` is recorded as 3.73 z-score.
Under “fitted relative affinity”, `GCCTAGCACTCATCTGTCAGTTTTGAACTGTGCTAGGTCTTGATTCGCTTGACGCTGCTG` is recorded as 0.0284 z-score.

Mixed results
With `PhoQ, residues 284 288 289 292 302 303 NLSRDF` the fold induction was 4.99 (PhoP, residues 12 14 15 18 19 AWHSL (Escherichia coli, UniProt P23836); Sort-seq, refers to: YFP reporter; E. coli; PhoQ-PhoP variant library, together with: 10 µM Mg2+; relative to: high Mg2+ state, higher = stronger signaling).

Excerpt of the above (set 3):
For `GCCTAGCACGAAGGTCTCGGTATCGGGACGTGCTAGGTCTTGATTCGCTTGACGCTGCTG`, “fitted relative affinity” read 3.96 z-score.
